Measured values pooled from the literature.
Each numbered part is a random draw from the data of one study; scales do not carry over between parts.

Block 1
Target: Sal-like protein 4, full length isoform A (SALL4, Homo sapiens, UniProt Q9UJQ4, residues 1-1053)
Sequence of UniProt Q9UJQ4 (whole entry, looked up): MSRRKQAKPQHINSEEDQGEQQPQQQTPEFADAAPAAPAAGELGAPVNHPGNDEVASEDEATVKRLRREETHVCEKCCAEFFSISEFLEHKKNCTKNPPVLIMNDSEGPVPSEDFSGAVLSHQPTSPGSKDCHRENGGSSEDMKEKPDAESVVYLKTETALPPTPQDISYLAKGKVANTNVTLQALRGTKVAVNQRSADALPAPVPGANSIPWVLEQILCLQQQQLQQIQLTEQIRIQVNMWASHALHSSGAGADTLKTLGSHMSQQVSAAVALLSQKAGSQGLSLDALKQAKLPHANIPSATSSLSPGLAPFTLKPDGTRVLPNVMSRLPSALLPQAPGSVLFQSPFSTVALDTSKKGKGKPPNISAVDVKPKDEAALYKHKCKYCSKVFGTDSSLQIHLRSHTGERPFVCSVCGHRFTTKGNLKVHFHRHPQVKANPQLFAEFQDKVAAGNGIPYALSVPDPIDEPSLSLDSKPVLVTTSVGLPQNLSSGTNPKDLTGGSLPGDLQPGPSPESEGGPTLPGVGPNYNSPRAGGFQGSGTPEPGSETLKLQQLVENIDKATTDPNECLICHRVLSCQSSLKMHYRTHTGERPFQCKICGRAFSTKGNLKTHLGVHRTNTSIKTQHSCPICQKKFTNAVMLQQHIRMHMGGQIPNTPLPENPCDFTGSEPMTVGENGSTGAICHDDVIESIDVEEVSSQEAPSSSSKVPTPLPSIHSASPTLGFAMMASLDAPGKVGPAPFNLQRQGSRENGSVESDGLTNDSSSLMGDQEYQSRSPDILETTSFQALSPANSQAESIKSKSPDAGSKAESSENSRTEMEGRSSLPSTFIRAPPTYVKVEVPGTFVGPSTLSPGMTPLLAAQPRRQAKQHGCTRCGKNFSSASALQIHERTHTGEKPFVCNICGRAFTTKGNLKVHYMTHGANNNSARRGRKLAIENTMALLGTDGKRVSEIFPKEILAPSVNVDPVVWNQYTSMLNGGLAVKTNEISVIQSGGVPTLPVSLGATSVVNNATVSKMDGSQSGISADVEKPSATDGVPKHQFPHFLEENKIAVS
Method: universal PBM
Form: double-stranded DNA, one strand shown
Medium: in vitro
Tested at: 600 nM
Notes: 8-mer, flanks averaged, mean of replicates
Reading: higher = stronger binding
The E-score of `AGTAGGGC` is reported as -0.0725.
`CGACTGTA` has an E-score of -0.173.
For `CTGGGCCA`, the E-score was -0.288.
The E-score of `CGAGATCG` is reported as -0.146.
`ACCATCCC` has an E-score of -0.0484.
For `CGGCGCAC`, the E-score was -0.319.
`AATCTAAG` gave an E-score of 0.105.
`GCAAACGA` has an E-score of 0.135.
`ACTATACG` gave an E-score of 0.0733.
The E-score of `GGCCATCA` is reported as -0.157.
For `ATACCGCC`, the E-score was -0.13.
With `ACTTTCTA` the E-score was 0.178.
For `AGAATCCT`, the E-score was -0.0668.
With `TCAGACAA` the E-score was 0.043.
`CGCAGCGA` gave an E-score of -0.302.
`CTGGGCTC` gave an E-score of -0.3.

Block 2
Target: RING finger protein unkempt homolog, zinc fingers 1-6, GST-SBP tag (UNK, Homo sapiens, UniProt Q9C0B0, residues 30-357)
Sequence of UniProt Q9C0B0 (30-357, looked up): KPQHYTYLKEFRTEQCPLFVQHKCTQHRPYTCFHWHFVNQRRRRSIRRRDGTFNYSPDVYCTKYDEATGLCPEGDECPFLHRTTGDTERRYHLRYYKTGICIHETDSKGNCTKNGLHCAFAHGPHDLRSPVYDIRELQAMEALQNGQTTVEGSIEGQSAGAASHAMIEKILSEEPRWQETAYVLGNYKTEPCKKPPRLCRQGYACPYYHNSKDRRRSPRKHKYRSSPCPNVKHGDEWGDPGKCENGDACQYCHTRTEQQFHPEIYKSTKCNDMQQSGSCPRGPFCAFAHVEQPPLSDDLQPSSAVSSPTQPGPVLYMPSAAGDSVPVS
Method: RNA Bind-n-Seq
Form: RNA
Medium: in vitro
Tested at: not given
Notes: RNA with constant flanks, human-mouse chimeric sites, ends assumed
Relative to: input RNA pool
Reading: higher = stronger binding
`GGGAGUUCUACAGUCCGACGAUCCACGUGUCUGCAGUACUUGAUGUGGACUACUCUCCCACUGGGAAGGAAUUUGUGUCUGCCAGCUUUGAUAAGUCUAUUAGAAUCUUUCCUGUAGACAAAAGUCGAAGCAGGGAAGUGUAUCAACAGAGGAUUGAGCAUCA` gave a bound/input enrichment of 0.438 ratio.
The bound/input enrichment of `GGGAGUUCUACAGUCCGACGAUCAACUUCGUGCAUCGGUUUCCUUUUGUAGCUGUUUCAAUUGGCUUCCUUGUGAAUAAAGAGAUGGAGUUUGGAGUUGUGUACAGCUGUGUGGAAGAUAAGAUGUACACCGGCAGGAAAGGGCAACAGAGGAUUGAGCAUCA` is reported as 0.43 ratio.
The bound/input enrichment of `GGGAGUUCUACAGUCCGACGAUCGAGCCAAGCCGGCAGUUUGUAAAGGACUCAAUUCGGCUGGUUAAAAGAUGCACUAAACCCGACAGAAAAGAAUUCCAGAAGAUUGCCAUGGCUACAGCUAUAGGAUUUGCUAUCAUGGGACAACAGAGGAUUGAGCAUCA` is reported as 0.213 ratio.
`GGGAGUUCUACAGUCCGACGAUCUGUAGUUUCUUGAUUUAUCAUUUUUCUUGCUCGGGUUUUUCCUUUAGGAAAAGCCUAAAGAUUAGGUUGUAAGAAAAACAGAAGCCAUGUUUCGAAGACCUGUGUUACAGGUAUUUCGUCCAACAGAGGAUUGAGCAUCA` has a bound/input enrichment of 0.17 ratio.
`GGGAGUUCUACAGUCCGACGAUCGAUCAUGGAACCAGAAUAGAAAUGAAGAUGAGAUUACCCAGACGAGCCAAAACAGCUAGCACUAGAAAAAGUAAACUUAACCUUGCAGAGUUCCUUAAUGAAGAUACAAGUUAAGAGAGCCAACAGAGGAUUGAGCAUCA` has a bound/input enrichment of 6.23 ratio.
`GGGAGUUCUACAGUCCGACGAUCCCCCAAUACCAUUUGCAGGUCUGGAACCUGCAUUCUUUUUUUAAAAAACAUGUAUACAUUUUAGGGCUGUAGAUUUACUUUCCUAUUUUUGUUUUUCAUUGCUGACUUUUGAGCACAGAACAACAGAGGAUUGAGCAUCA` gave a bound/input enrichment of 1.15 ratio.
`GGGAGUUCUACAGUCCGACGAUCACCAUUUUCGCGGUUCAGGCUUUGUGUGUAGUUCACUCUAUGUAUUAAAUUAUUAUUCUGCUUAGCUUAUAAUAAGGAUAAUUGCAUUUAAAGAGGUUACUGAAUGUUACUCUGAAACUUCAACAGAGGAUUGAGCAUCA` has a bound/input enrichment of 0.441 ratio.
`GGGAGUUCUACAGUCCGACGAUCAUGCAGUAUGAGACCAACAGCAUGGACUUCAAAGUCGGGGCAGAUGGGACAGUCUUCGCCACCCGGGAGCUGCAGGUCCCCUCCGAGCAGGUGGCGUUCACGGUGACUGCAUGGGACAGCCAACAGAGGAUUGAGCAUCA` gave a bound/input enrichment of 0.134 ratio.
`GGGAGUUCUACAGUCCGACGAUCGUACUGCAACAGCAGGGAAAACUGCAGGAAGCUCUGAUGCAUUAUAAGGAGGCUAUUCGAAUCAGUCCUACCUUUGCUGAUGCUUAUUCUAAUAUGGGAAACACUCUAAAGGAGAUGCAGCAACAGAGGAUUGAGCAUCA` has a bound/input enrichment of 0.192 ratio.
The bound/input enrichment of `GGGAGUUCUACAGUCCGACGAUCGAGUCGAGCAAACUUGAAACAAUUCGUUAUCUUGCAGCCUCAGUGUUUUUACUUGCCUGGCAAUAGCUGGGGUUUUAUAGGUUCUGGAAGGAGAACUGACGAUGAUGCUGCCGCUGCUGCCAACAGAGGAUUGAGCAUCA` is reported as 0.307 ratio.
`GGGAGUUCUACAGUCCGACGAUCGAUCAUGAACCACCAUCAGAAAUGAAGGAUGAGACUACCAGACGAGCCAAAACAGCUGCGCUACAGAAAAGUAAACUUUAACCUUGCGAGUUCCUUAAUGAAGAUACAAGUUAAGAGAGCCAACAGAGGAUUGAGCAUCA` gave a bound/input enrichment of 0.161 ratio.

Block 3
Target: RNA binding protein fox-1 homolog 2, RRM domain, GST-SBP tag (RBFOX2, Homo sapiens, UniProt O43251-10, residues 100-194)
Method: RNA Bind-n-Seq
Form: RNA
Medium: in vitro
Tested at: 365 nM
Notes: natural RNA segment, single round, ends assumed
Relative to: no-protein control
Reading: higher = stronger binding
Construct (chain): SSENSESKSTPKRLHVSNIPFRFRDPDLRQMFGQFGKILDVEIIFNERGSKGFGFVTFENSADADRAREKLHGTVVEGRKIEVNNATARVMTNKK
`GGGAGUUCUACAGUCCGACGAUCAGGGGAAGUUGAAACCCUAGGGCACCCCCACCACCUCUGCUCGAGAGGUCCGUGGGGGAGGCCGUGGGCAAAGGUGUCCCGAGCUGCCAUGUUUAGGAAACACACUGUACUGGAAUUCUCGGGUGCCAA`: “RBNS enrichment (R)” 0.265.
`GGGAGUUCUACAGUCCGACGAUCAAAAAUCUGCAAGGUACCAGAUGGAGGAUUCGGGGUCAAGGUGAUGUGGCUGGCAUAGCCUGUGCUCUCCCCCAGCACCUUAUUUAGACAGCCCCCCAACAGUAGUAGGCUGGAAUUCUCGGGUGCCAA`: “RBNS enrichment (R)” 0.371.
For `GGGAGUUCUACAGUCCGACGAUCACCACUCACGGCCCAAAUCUUCUUGAUCAUAUGUUUAAAUAUAUUUUUUAAUAUUUGGAGCAUGAGUUGUCACUUCUUGUUUGCCUUUUUUAUAAGGAAAUGUUGGAGAGUGGAAUUCUCGGGUGCCAA`, “RBNS enrichment (R)” read 0.454.
Under “RBNS enrichment (R)”, `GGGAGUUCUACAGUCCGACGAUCGUUCUUUUUCCACGCAAUGUAAGAACAUGAUAUACUGUACGUUGGAAAGCAUUUACCUUAUUUAUAUACCUGAAUGUUCCUACUACACAAAUAAACAUAUAUUAAAUUCUUGGAAUUCUCGGGUGCCAA` is recorded as 1.09.
For `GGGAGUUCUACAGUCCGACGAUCCUGCUCUAAGCUUUGACACGUCAAAAUGUGGGAUCAGAAAGAAAAAAAUCAUGAUAUUUAAAAAUGGUCAAAUAUUUGAGGCAAAAAAAAAAAAAAAAAGUGUCUCCAGGUGGAAUUCUCGGGUGCCAA`, “RBNS enrichment (R)” read 0.438.
Under “RBNS enrichment (R)”, `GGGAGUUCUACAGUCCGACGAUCAAUGUUACCUUCUCUCCAUGCUGCCAUUAUGCCAAAACAAAAGCUGUGAUAAAAAAAGUGCUUGAGAGAGUGUGUUGAUAAGAAAGUGAUUUAUUUACAGAUGGAAGUCUUGGAAUUCUCGGGUGCCAA` is recorded as 0.367.
Under “RBNS enrichment (R)”, `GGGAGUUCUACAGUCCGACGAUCAGUUUUCUGUAGUGAUAUUGUUGAAUAUGACAGGUAAAGCAACUGUGAGGGCAAACUAGAAUUAGUAGUGAGAAACUGCUAAAGCUGAUUUGCCAUUUUACUGAAAUGGAUGGAAUUCUCGGGUGCCAA` is recorded as 0.478.
`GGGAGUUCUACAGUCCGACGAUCUUGUGGGUGACCACUCCAGACCCUCCUGCCAAGGAGAGCAUGGGAGAGGGCAGAGUACAAUGGGGUGAGGUCCCAGGCGCAUGGAGCAAGGCUCCCUUUCUGGGGAAGCCUGGAAUUCUCGGGUGCCAA` — result for “RBNS enrichment (R)”: 4.45.
Under “RBNS enrichment (R)”, `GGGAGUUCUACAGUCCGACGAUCAGACAGUGAUGCCUGCCCGCACCCUGGCCUGGUCCCUGGUCCUUCACUGGCGCCUUCUCGGAGCUGGCCCAGGGGGCCUGGAGCAUGGACAGUGUGGGCGCUCUCCCUACUGGAAUUCUCGGGUGCCAA` is recorded as 0.339.

Block 4
Target: Prothrombin, mature alpha-thrombin (F2, Homo sapiens, UniProt P00734)
Method: aptamer microarray, sandwich
Form: DNA with 2'F-ANA
Medium: in vitro
Tested at: 200 nM
Notes: whole 15-mer aptamer, many near background
With: Cy3 exosite-II aptamer, 400 nM
Reading: higher = stronger binding
Oligonucleotide: GGTTGGTGTGGTTGG
`2'F-ANA at 2 3 4 8 9 10 11 12 15` — result for “mean fluorescence intensity”: 261 a.u.
`2'F-ANA at 1 2 3 8 10` — result for “mean fluorescence intensity”: 67.6 a.u.
`2'F-ANA at 5 8 9 10 12 13 14`: “mean fluorescence intensity” 46 a.u.
For `2'F-ANA at 1 2 3 4 6 10 11 13`, “mean fluorescence intensity” read 51.2 a.u.
For `2'F-ANA at 1 2 3 5 8 10 11 14`, “mean fluorescence intensity” read 49.3 a.u.
For `2'F-ANA at 1 3 6 8 9 10 12 13 14`, “mean fluorescence intensity” read 139 a.u.
Under “mean fluorescence intensity”, `2'F-ANA at 3 6 7 9 10 11 12` is recorded as 550 a.u.
For `2'F-ANA at 3 4 6 8 9 10 11 12 14 15`, “mean fluorescence intensity” read 151 a.u.
Under “mean fluorescence intensity”, `2'F-ANA at 1 2 3 4 5 6 8 12 13 14 15` is recorded as 274 a.u.
`2'F-ANA at 1 9 10 11 12 13 14`: “mean fluorescence intensity” 46.5 a.u.
Under “mean fluorescence intensity”, `2'F-ANA at 1 2 3 7 8 9 10 14 15` is recorded as 56.2 a.u.
`2'F-ANA at 3 4 5 7 8 9 11 12 14`: “mean fluorescence intensity” 59 a.u.
Under “mean fluorescence intensity”, `2'F-ANA at 3 11 12 15` is recorded as 1180 a.u.
For `2'F-ANA at 4 5 8 9 10 12 14`, “mean fluorescence intensity” read 47.1 a.u.
For `2'F-ANA at 4 7 9 10 15`, “mean fluorescence intensity” read 141 a.u.
`2'F-ANA at 1 5 8 12` — result for “mean fluorescence intensity”: 131 a.u.
Under “mean fluorescence intensity”, `2'F-ANA at 1 2 3 5 6 7 8 10 13 14 15` is recorded as 49.9 a.u.
Under “mean fluorescence intensity”, `2'F-ANA at 3 4 5 6 7 8 9 10 11 12 13 14` is recorded as 92.1 a.u.
Under “mean fluorescence intensity”, `2'F-ANA at 1 5 10 12 14 15` is recorded as 43.4 a.u.
Under “mean fluorescence intensity”, `2'F-ANA at 3 7 10 12 13 14 15` is recorded as 425 a.u.
Under “mean fluorescence intensity”, `2'F-ANA at 3 4 5 6 7 8 10 12 13 14 15` is recorded as 53.2 a.u.
For `2'F-ANA at 1 2 3 4 6 7 8 10 11 12 14 15`, “mean fluorescence intensity” read 56.8 a.u.
Under “mean fluorescence intensity”, `2'F-ANA at 2 3 5 6 7 9 10 13 14` is recorded as 49.9 a.u.
`2'F-ANA at 1 4 7 9 13 14` — result for “mean fluorescence intensity”: 50.3 a.u.
For `2'F-ANA at 1 2 3 4 6 7 9 13 14`, “mean fluorescence intensity” read 53.3 a.u.

Repeated from above (block 4):
Under “mean fluorescence intensity”, `2'F-ANA at 3 6 7 9 10 11 12` is recorded as 550 a.u.
For `2'F-ANA at 3 4 6 8 9 10 11 12 14 15`, “mean fluorescence intensity” read 151 a.u.
Under “mean fluorescence intensity”, `2'F-ANA at 1 2 3 4 5 6 8 12 13 14 15` is recorded as 274 a.u.
`2'F-ANA at 1 9 10 11 12 13 14`: “mean fluorescence intensity” 46.5 a.u.
Under “mean fluorescence intensity”, `2'F-ANA at 1 2 3 7 8 9 10 14 15` is recorded as 56.2 a.u.
`2'F-ANA at 3 4 5 7 8 9 11 12 14`: “mean fluorescence intensity” 59 a.u.
Under “mean fluorescence intensity”, `2'F-ANA at 3 11 12 15` is recorded as 1180 a.u.
For `2'F-ANA at 4 5 8 9 10 12 14`, “mean fluorescence intensity” read 47.1 a.u.
For `2'F-ANA at 4 7 9 10 15`, “mean fluorescence intensity” read 141 a.u.
